Assay results gathered from unrelated publications.
Compare with care: the assays were run in different laboratories. Values joined by “and” are separate records of one study, mostly repeats; a detail may differ. ± gives the spread as reported. Converted amounts (≈) assume the structure as drawn.

Compound	tested on	test	system	setting	scale	quantity	result
COc1ccc(Nc2ncnc3ccc(-c4ccc(S(=O)(=O)N5CCOCC5)cc4)cc23)cc1Cl	Leishmania major	parasite growth, resazurin	–	promastigote	–	EC50	0.83 µM
CC(C)n1ncc2c(C(=O)NCC(C)(C)N)cc(C3CC3)nc21	Enterovirus D68	viral replication	RD, US/MO/14-18947	30 nM	–	plaque reduction	17.6% and 23.3%
C[n+]1ccc(/C=N/NC(=O)c2cccc(C(=O)N/N=C/c3cc[n+](C)cc3)c2)cc1	MYC parallel G4 DNA	FRET melting	–	1 µM, DNA 0.2 µM, added: duplex DNA competitor 10 µM	–	ΔTm	2.2 ± 0.2 °C
CCCC(=O)N1CCN(c2ccc(NC(=O)c3ccc([N+](=O)[O-])o3)cc2Cl)CC1	Mus musculus	gene silencing, high-content imaging	LDR reporter GFP cells	30 h, retest run 2	–	Emax	59%
CN(C)CCNC(=O)c1cccn2c(=O)c3cc4ccccc4cc3nc12	Trypanosoma brucei	RNA-seq	Lister 427 bloodstream form	2 × EC50, 4 h	–	unchanged G4-containing genes	712 genes
CC1(C)[C@H](NC(=O)/C(=N\OCCN)c2csc(N)n2)C(=O)N1OS(=O)(=O)O	Shigella flexneri	agar dilution	ATCC 12022, susceptible	–	–	MIC	2 µg/mL (≈ 4.73 µM)
CCCC(C)Oc1cccc(NC(=O)c2cccnc2)c1 (stereo not shown)	Nakaseomyces glabratus	microbial growth, broth dilution	MY1381	–	–	MIC50	16 µg/mL (≈ 56.3 µM)
C[C@@H]1C(=O)O[C@@H](C)/C=C/C=C\[C@@H](C)[C@@H]2C=C[C@@H]3C[C@@]4(C)O[C@H]4[C@@H](C)[C@H]3[C@@H]2C(=O)C(Cl)(Cl)C1=O	Staphylococcus aureus	–	MRSA clinical isolate	resistant OXA/SXT	–	MIC	0.1 µg/mL (≈ 0.202 µM)
O=C(O)CN1C(=O)[C@@H](Cc2ccccc2)NC2(C1=O)C1CC3CC(C1)CC2C3 (stereo partly shown)	Trypanosoma brucei	parasite growth	–	pH 7.4, blood stage	–	IC90	259 µM
[2H]C([2H])(N)C([2H])([2H])NC(=O)c1cc(C2CC2)nc2c1cnn2C(C)C	Enterovirus D68	viral replication	RD, US/MO/14-18947	10 nM	–	plaque reduction	0%
CC(C)(O/N=C(\C(=O)N[C@@H]1C(=O)N(OS(=O)(=O)O)C1(C)C)c1nsc(N)n1)C(=O)O	Proteus vulgaris	agar dilution	ATCC 29905, susceptible	–	–	MIC	8 µg/mL (≈ 17.2 µM)
CC(C)(C)OC(=O)N1CCN(S(=O)(=O)c2ccc(-c3ccc4ncnc(Nc5ccc(OCc6cccc(F)c6)c(Cl)c5)c4c3)cc2)CC1	Leishmania major	parasite growth, resazurin	–	promastigote	–	EC50	> 15 µM
CC1(C)[C@H](NC(=O)/C(=N\OCC(=O)N2CCC[C@@H]2C(=O)O)c2nsc(N)n2)C(=O)N1OS(=O)(=O)O	Shigella flexneri	agar dilution	ATCC 12022, susceptible	–	–	MIC	2 µg/mL (≈ 3.73 µM)
CN1CCN(S(=O)(=O)c2ccc(-c3ccc4ncnc(Nc5ccc(Cl)cc5)c4c3)cc2)CC1	Leishmania major	parasite growth, resazurin	–	promastigote	–	EC50	4.6 µM
CC(C)(C)NCC(SS(=O)(=O)O)c1ccccc1 (stereo not shown)	Schistosoma mansoni	–	mice	600 mg/kg single dose, 1056 h, dosed day 7, perfused 44	reference: vehicle	male worm burden reduction	29%
CC1(C)[C@H](NC(=O)/C(=N\OC2(C(=O)O)CC2)c2nsc(N)n2)C(=O)N1OS(=O)(=O)O	Shigella flexneri	agar dilution	ATCC 12022, susceptible	–	–	MIC	1 µg/mL (≈ 2.15 µM)
COC1CN([C@H]2CC[C@H]([C@@]3(C)Oc4c(Cl)cc(C(=O)NCc5c(SC)cc(C)[nH]c5=O)c(C)c4O3)CC2)C1	–	RNA-seq, item: STAC mouse homolog	mouse, HT-1376 xenograft, whole blood	dose not given	reference: vehicle	log2 fold change	1.88
CNS(=O)(=O)Nc1nccc(Cc2c(C)c3ccc(Oc4ncccc4F)cc3oc2=O)c1F	HuO9	cell viability, CellTiter-Glo	–	7 days	–	IC50	> 1 µM
Cc1cc(N2CC[C@@](C#N)(C3(C)CC3)C2=O)cc(C(=O)NCc2cc(F)cc(-c3cnn(C)c3)c2)n1	Plasmodium falciparum	–	Pf3D70087/N9, humanized SCID mouse	10 mg/kg, 4-day test, day 3 post-infection	–	parasitaemia	1.11%
CC1(C)[C@H](NC(=O)/C(=N\OC2(C(=O)O)CCCCC2)c2csc(N)n2)C(=O)N1OS(=O)(=O)O	Proteus vulgaris	agar dilution	ATCC 29905, susceptible	–	–	MIC	0.25 µg/mL (≈ 0.495 µM)
Nc1ncc(-c2cc(-c3cnn(CC(F)(F)F)c3)ncc2F)nc1C(=O)NC1CNCC(F)C1 (stereo not shown)	ERN1	KINOMEscan	–	1 µM	reference: DMSO control	remaining binding	100%
COc1ccc2c(C)nc(Nc3nc(O)cc(-c4ccccc4)n3)nc2c1	Mus musculus	gene silencing, high-content imaging	LDR reporter GFP cells	retest run 1	–	AC50	10 µM

Compound	tested on	test	system	setting	scale	quantity	result
Cc1c(CN(C)C(=O)/C=C/c2cnc3c(c2)CC(N)C(=O)N3)oc2ccccc12 (stereo not shown)	Klebsiella pneumoniae	microbial growth, broth dilution	BAA2342	–	–	MIC	16 µg/mL (≈ 41 µM)
Cc1ccc2c(c1)nc(NC(=O)c1cccc(C(F)(F)F)c1)n2[C@H]1CC[C@H](N)CC1	Trypanosoma brucei brucei	growth inhibition, CellTiter-Glo	Lister 427 bloodstream form	48 h	–	EC50	0.31 µM
CC(C)(C)OCc1ccc(-c2ccc3ncnc(Nc4ccc(OCc5cccc(F)c5)c(Cl)c4)c3c2)cc1	Leishmania major	parasite growth, resazurin	–	promastigote	–	EC50	> 15 µM
FC(F)(F)c1cccc(CNc2nc(NC3CCN(Cc4ccccc4)CC3)c3nc[nH]c3n2)c1	Cryptococcus neoformans	RNA-seq, item: CNAG_03277	wild type	48 µg/mL, 3 h	reference: untreated wild type	log2 fold change	0.589
COCC/N=C(\S)N/N=C(\C)c1ccccc1O	Mus musculus	gene silencing, high-content imaging	LDR reporter GFP cells	30 h, confirmation, mean of two runs	–	Emax	98%
O=S(=O)(c1cccc(-c2ccc3ncnc(Nc4ccc(OCc5cccc(F)c5)c(Cl)c4)c3c2)c1)N1CCCC1	Leishmania major	parasite growth, resazurin	–	promastigote	–	EC50	> 15 µM
CC(=O)O[C@@H]1[C@@H](OC(C)=O)[C@H](Sc2sc(C(=O)c3ccc(Br)cc3)c(N)c2-c2nc3ccccc3s2)OC[C@@H]1OC(C)=O	human adenovirus type 7	plaque reduction	–	non-toxic concentration	–	viral titre reduction	30%
O=C(N/N=C/c1ccc2c(ccc[n+]2Cc2ccccc2)c1)c1cncc(C(=O)N/N=C/c2ccc3c(ccc[n+]3Cc3ccccc3)c2)n1	MYC parallel G4 DNA	FRET melting	–	1 µM, DNA 0.2 µM, added: duplex DNA competitor 10 µM	–	ΔTm	11.4 ± 0.3 °C
Nc1c(C(=O)c2ccc(Cl)cc2)sc(S)c1-c1nc2ccccc2s1	human adenovirus type 7	plaque reduction	–	non-toxic concentration	–	viral titre reduction	10%
CC(C)n1ncc2c(C(=O)NCC3CNC3)cc(C3CC3)nc21	Enterovirus D68	viral replication	RD, US/MO/14-18947	10 nM	–	plaque reduction	0% and 0.83%
CCN(CC)CCCNC(=O)CSc1c2c(nc3cc(Cl)ccc13)CCCC2	Mus musculus	gene silencing, high-content imaging	LDR reporter GFP cells	30 h, confirmation, mean of two runs	–	Emax	63%
CC(=O)OC[C@H]1O[C@@H](Sc2sc(C(=O)c3ccc(Cl)cc3)c(N)c2-c2nc3ccccc3s2)[C@H](OC(C)=O)[C@@H](OC(C)=O)[C@H]1OC(C)=O	human adenovirus type 7	plaque reduction	–	non-toxic concentration	–	viral titre reduction	0%
C=C(NC(=O)c1csc(-c2nc3c(cc2O)-c2nc(cs2)C(=O)NC(C(C)O)C(=O)NC(=C(C)OC)c2nc(cs2)C(=O)NC2c4nc(cs4)C(=O)NC(COC(=O)c4c5c6c(cccc6n4O)COC(=O)C(OC4CC(C)(O)C(N(C)C)C(C)O4)C2OC5)c2nc-3cs2)n1)C(N)=O (stereo not shown)	Streptococcus pyogenes	–	10 isolates	serum 0%	–	MIC50	0.0078 µg/mL (≈ 0.00543 µM)
C#CCNC(=O)C1(O/N=C(\C(=O)N[C@@H]2C(=O)N(OS(=O)(=O)O)C2(C)C)c2csc(N)n2)CC1	Proteus vulgaris	agar dilution	ATCC 29905 susceptible	–	–	MIC	≤ 0.06 µg/mL
CCCCCCCCCC(=O)N[C@@H](Cc1c[nH]c2ccccc12)C(=O)N[C@H](CC(N)=O)C(=O)N[C@@H](CC(=O)O)C(=O)N[C@@H]1C(=O)NCC(=O)N[C@@H](CCCNC(=O)OC2/C=C/CCCCC2)C(=O)N[C@@H](CC(=O)O)C(=O)N[C@H](C)C(=O)N[C@@H](CC(=O)O)C(=O)NCC(=O)N[C@H](CO)C(=O)N[C@@H]([C@H](C)CC(=O)O)C(=O)N[C@@H](CC(=O)c2ccccc2N)C(=O)O[C@@H]1C (stereo partly shown)	Staphylococcus aureus	planktonic bacterial growth, isothermal microcalorimetry	MRSA	1.5 µg/mL, 24 h, 37 °C, added: TAG hydrogel	–	peak heat flow time	0 h
CC1(C)C(NC(=O)C(=NOC2(C(=O)O)CCC2)c2csc(N)n2)C(=O)N1OS(=O)(=O)O (stereo not shown)	Proteus vulgaris	agar dilution	ATCC 29905, susceptible	–	–	MIC	≤ 0.03 µg/mL
Cc1cnc(CNC(=O)c2c(=O)c3ccc(N4CCCN(C)CC4)nc3n3c2sc2ccccc23)cn1	Trypanosoma brucei	RNA-seq	Lister 427 bloodstream form	2 x EC50, 4 h	reference: untreated	unchanged genes	16900 genes
CN(C)CCCn1c2ccc([N+](=O)[O-])cc2c(=O)n1Cc1ccccc1	Leishmania amazonensis	parasite growth, resazurin	–	promastigote	–	IC50	12.8 µM
CC1(C)[C@H](NC(=O)/C(=N\OCc2c(Cl)cccc2Cl)c2nsc(N)n2)C(=O)N1OS(=O)(=O)O	Proteus vulgaris	agar dilution	ATCC 29905, susceptible	–	–	MIC	2 µg/mL (≈ 3.71 µM)
COc1nc(Nc2nc(O)c3ccccc3n2)nc2ccc(C)cc12	Mus musculus	gene silencing, high-content imaging	LDR reporter GFP cells	30 h, retest run 1	–	Emax	34%
C=CC(=O)Nc1cccc(Cn2ncc3cnc(Nc4cnn(CCOC)c4)nc32)c1	ASK1 human	binding, KINOMEscan	–	100 nM	lower = stronger binding	percent of control	100%

Excerpt of the above:
Compound	tested on	test	system	setting	scale	quantity	result
C[n+]1ccc(/C=N/NC(=O)c2cccc(C(=O)N/N=C/c3cc[n+](C)cc3)c2)cc1	MYC parallel G4 DNA	FRET melting	–	1 µM, DNA 0.2 µM, added: duplex DNA competitor 10 µM	–	ΔTm	2.2 ± 0.2 °C
CN1CCN(S(=O)(=O)c2ccc(-c3ccc4ncnc(Nc5ccc(Cl)cc5)c4c3)cc2)CC1	Leishmania major	parasite growth, resazurin	–	promastigote	–	EC50	4.6 µM
CC(C)(O/N=C(\C(=O)N[C@@H]1C(=O)N(OS(=O)(=O)O)C1(C)C)c1nsc(N)n1)C(=O)O	Proteus vulgaris	agar dilution	ATCC 29905, susceptible	–	–	MIC	8 µg/mL (≈ 17.2 µM)
CCCC(C)Oc1cccc(NC(=O)c2cccnc2)c1 (stereo not shown)	Nakaseomyces glabratus	microbial growth, broth dilution	MY1381	–	–	MIC50	16 µg/mL (≈ 56.3 µM)
CC(=O)O[C@@H]1[C@@H](OC(C)=O)[C@H](Sc2sc(C(=O)c3ccc(Br)cc3)c(N)c2-c2nc3ccccc3s2)OC[C@@H]1OC(C)=O	human adenovirus type 7	plaque reduction	–	non-toxic concentration	–	viral titre reduction	30%
CC1(C)C(NC(=O)C(=NOC2(C(=O)O)CCC2)c2csc(N)n2)C(=O)N1OS(=O)(=O)O (stereo not shown)	Proteus vulgaris	agar dilution	ATCC 29905, susceptible	–	–	MIC	≤ 0.03 µg/mL
CC1(C)[C@H](NC(=O)/C(=N\OCc2c(Cl)cccc2Cl)c2nsc(N)n2)C(=O)N1OS(=O)(=O)O	Proteus vulgaris	agar dilution	ATCC 29905, susceptible	–	–	MIC	2 µg/mL (≈ 3.71 µM)
